# Results pooled from the literature.
# Parts stem from different laboratories: compare values within a part only.
# UniProt P49841, sequence (whole entry, looked up): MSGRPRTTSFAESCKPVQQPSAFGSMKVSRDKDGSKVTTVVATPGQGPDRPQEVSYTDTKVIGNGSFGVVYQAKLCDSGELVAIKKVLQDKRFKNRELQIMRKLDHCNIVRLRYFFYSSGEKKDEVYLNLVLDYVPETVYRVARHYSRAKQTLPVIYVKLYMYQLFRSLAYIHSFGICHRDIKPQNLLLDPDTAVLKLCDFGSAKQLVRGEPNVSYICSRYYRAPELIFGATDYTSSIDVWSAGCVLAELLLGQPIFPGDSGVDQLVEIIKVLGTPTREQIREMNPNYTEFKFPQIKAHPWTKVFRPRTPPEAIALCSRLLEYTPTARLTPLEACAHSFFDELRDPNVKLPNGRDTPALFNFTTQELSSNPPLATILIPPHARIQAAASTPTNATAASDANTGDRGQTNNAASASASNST
# UniProt P48729, sequence (whole entry, looked up): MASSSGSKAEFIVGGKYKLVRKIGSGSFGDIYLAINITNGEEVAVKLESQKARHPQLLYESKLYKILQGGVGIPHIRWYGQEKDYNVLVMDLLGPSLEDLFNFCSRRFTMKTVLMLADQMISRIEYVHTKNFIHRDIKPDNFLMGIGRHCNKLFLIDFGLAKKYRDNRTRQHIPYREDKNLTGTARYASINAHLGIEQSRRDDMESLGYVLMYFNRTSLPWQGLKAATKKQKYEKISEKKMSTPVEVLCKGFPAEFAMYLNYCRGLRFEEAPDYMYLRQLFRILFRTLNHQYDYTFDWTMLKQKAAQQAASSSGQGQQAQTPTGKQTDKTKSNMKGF
# UniProt O14730, sequence (whole entry, looked up): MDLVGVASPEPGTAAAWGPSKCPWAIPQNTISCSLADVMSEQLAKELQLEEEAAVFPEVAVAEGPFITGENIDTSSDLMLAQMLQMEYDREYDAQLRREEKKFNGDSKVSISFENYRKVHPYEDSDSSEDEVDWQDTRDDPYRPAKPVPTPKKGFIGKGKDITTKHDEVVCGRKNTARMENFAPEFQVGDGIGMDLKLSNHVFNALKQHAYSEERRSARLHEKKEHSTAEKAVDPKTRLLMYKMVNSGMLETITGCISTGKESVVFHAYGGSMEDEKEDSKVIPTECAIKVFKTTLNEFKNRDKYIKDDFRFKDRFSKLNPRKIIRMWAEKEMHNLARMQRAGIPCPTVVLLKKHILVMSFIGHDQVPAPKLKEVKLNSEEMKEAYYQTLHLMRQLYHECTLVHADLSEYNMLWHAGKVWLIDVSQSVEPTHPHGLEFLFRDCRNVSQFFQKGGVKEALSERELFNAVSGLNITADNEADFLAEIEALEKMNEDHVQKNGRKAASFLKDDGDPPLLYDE
# UniProt Q9Y5S2, sequence (whole entry, looked up): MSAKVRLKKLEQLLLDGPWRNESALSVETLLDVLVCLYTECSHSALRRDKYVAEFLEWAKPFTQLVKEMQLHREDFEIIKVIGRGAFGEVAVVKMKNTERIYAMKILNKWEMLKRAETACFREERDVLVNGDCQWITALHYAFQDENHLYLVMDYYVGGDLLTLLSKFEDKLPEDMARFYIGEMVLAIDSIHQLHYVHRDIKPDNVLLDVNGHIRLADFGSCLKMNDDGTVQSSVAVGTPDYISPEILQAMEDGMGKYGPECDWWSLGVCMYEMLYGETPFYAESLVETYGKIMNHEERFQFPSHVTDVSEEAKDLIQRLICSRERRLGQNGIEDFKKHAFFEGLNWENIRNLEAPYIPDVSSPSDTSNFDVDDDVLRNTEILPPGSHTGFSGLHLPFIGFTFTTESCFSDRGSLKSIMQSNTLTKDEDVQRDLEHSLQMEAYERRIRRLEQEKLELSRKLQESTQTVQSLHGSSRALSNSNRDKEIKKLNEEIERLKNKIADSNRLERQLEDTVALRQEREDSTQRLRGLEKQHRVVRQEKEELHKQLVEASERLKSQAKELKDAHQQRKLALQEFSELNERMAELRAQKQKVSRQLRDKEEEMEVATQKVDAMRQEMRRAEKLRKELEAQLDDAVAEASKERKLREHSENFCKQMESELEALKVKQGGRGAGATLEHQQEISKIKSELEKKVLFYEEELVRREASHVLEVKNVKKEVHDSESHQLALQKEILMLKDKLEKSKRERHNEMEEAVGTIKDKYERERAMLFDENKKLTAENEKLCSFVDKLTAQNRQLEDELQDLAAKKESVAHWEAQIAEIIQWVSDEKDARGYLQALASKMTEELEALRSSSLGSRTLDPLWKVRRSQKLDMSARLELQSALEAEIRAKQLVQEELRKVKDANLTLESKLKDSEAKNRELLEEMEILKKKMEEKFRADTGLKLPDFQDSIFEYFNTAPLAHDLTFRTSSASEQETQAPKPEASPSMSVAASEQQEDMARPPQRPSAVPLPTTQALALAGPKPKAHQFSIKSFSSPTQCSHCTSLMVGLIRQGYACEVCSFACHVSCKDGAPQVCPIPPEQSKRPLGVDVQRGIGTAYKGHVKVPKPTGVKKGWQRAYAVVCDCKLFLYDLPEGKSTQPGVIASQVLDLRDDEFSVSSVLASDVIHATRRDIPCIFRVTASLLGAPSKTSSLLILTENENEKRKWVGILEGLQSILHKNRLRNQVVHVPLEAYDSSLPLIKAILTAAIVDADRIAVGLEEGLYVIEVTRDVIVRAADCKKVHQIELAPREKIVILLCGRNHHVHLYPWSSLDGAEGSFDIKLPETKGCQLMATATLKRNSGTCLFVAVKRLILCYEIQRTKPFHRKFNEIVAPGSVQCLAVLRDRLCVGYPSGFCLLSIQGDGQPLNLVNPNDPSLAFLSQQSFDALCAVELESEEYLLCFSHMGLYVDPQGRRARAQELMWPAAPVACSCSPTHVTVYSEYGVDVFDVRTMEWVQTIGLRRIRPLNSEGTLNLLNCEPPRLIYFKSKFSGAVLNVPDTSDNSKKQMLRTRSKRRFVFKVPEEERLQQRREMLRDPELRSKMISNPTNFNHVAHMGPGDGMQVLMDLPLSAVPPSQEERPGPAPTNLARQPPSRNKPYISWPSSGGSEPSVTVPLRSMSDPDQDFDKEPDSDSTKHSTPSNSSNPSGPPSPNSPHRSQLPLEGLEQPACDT
# UniProt P22607, sequence (whole entry, unmodified, looked up): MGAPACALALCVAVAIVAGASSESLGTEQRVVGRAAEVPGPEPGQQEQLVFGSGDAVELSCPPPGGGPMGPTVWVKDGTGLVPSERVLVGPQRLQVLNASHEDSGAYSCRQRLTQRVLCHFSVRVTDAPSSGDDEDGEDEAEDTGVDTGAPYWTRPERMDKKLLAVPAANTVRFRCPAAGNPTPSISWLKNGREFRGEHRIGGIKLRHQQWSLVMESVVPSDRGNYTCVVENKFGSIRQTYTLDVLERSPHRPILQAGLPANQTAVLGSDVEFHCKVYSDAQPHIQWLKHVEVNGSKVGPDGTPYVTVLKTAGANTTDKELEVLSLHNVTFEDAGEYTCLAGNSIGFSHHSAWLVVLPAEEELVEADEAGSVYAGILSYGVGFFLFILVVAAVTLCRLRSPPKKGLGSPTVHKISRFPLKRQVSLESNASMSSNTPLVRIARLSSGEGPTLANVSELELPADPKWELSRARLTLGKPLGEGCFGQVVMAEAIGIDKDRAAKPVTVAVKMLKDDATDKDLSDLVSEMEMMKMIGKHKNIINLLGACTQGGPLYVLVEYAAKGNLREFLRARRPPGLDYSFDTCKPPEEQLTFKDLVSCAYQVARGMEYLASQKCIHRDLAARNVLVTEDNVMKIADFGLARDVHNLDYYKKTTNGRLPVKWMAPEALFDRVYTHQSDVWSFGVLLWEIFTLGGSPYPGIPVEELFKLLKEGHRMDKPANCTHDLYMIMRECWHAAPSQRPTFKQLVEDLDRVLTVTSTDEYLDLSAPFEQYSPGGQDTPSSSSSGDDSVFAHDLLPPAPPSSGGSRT
# UniProt Q9Y6E0, sequence (whole entry, looked up): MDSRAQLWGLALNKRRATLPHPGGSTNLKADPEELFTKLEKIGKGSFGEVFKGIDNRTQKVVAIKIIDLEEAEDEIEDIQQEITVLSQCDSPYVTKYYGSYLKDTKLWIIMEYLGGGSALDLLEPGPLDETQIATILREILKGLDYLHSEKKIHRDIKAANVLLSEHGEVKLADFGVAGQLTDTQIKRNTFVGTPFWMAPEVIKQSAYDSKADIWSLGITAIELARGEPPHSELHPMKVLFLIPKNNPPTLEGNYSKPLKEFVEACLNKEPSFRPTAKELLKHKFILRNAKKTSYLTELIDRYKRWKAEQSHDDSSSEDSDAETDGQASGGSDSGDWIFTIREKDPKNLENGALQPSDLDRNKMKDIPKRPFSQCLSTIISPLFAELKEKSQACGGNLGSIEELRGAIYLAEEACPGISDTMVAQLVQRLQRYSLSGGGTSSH

# Set 1
# SMILES: CCS(=O)(=O)c1cc2cc(C[C@@](O)(CC(C)(C)c3ccc(F)cc3C(N)=O)C(F)(F)F)[nH]c2cn1
# Method: competition with immobilised ligand
# Tested at: 1 µM
target,effect on,remaining binding [%]
"Tyrosine-protein kinase ABL1, phosphorylated (ABL1, Homo sapiens, UniProt P00519, Q252H)",cell-free assay,92
"RIOK3 (Homo sapiens, UniProt O14730)",cell-free assay,74
"Tyrosine-protein kinase ABL1, phosphorylated (ABL1, Homo sapiens, UniProt P00519, E255K)",binding,90
"DYRK1B (Homo sapiens, UniProt Q9Y463)",cell-free assay,100
"CSNK1A1 (Homo sapiens, UniProt P48729)",cell-free assay,86
"FGFR3 (Homo sapiens, UniProt P22607, G697C)",cell-free assay,100
"STK24 (Homo sapiens, UniProt Q9Y6E0)",cell-free assay,0
"TIE1 (Homo sapiens, UniProt P35590)",cell-free assay,66
"GSK3B (Homo sapiens, UniProt P49841)",cell-free assay,90
"TRPM6 (Homo sapiens, UniProt Q9BX84)",cell-free assay,72
"CDC42BPB (Homo sapiens, UniProt Q9Y5S2)",cell-free assay,99
"MAP3K11 (Homo sapiens, UniProt Q16584)",cell-free assay,92

# Set 2
# Host: mouse
# Matrix: microsomes or S9
# Tested at: 2 µM
# Time: 0.5 h
Structure (SMILES),remaining compound [%]
Cc1cccc(N2CCN(S(=O)(=O)c3ccc(-c4ccc(=O)[nH]n4)s3)CC2C)c1 (stereo not drawn),77.3
Cc1cc(OC(Cc2ccc(Cl)cc2)c2ccc(Cl)cc2Cl)ncc1NC(=O)NC(C)(C)C (stereo not drawn),76.9
O=C(O)c1ccc(Nc2nc(-c3ccc(Cl)cc3)cs2)cc1,80.2

# Set 3
# Target: Protein max, full length (MAX, Homo sapiens, UniProt P61244-2, residues 1-151)
# Method: protein-binding microarray
# Form: double-stranded DNA, one strand shown
# Matrix: in vitro
# Tested at: not given
# Setting: k-mer, scored over probes, only values ≥0.25
# Reading: higher = stronger binding
Sequence,E-score
AACACGTG,0.498
CATGGCAG,0.361
CGCACGCC,0.366
CGGCCACG,0.338
ATCACGGG,0.288
ACGCGAGC,0.257
ACGCGTCG,0.293
CCATGCCA,0.337

# Further values, each from its own experiment
Structure (SMILES),method,matrix,pH,endpoint,result
CC(C)C[C@@H]1NC(=O)[C@H](C(C)C)NC(=O)[C@H](CC(C)C)NC(=O)[C@@H](CC(C)C)NC(=O)[C@H](CC(C)C)NC(=O)[C@H](C(C)C)NC(=O)[C@H](Cc2cscn2)NC1=O,PRP chromatography estimate,"1,9-decadiene/PBS",pH 7.4,logD,0.753

# Excerpt of the above (set 1):
target,effect on,remaining binding [%]
"MAP3K11 (Homo sapiens, UniProt Q16584)",cell-free assay,92
